Published values collected from several papers.
± marks the error that the study gave. Converted amounts (≈) assume the structure as drawn.
Sequence of UniProt O75469 (whole entry, looked up): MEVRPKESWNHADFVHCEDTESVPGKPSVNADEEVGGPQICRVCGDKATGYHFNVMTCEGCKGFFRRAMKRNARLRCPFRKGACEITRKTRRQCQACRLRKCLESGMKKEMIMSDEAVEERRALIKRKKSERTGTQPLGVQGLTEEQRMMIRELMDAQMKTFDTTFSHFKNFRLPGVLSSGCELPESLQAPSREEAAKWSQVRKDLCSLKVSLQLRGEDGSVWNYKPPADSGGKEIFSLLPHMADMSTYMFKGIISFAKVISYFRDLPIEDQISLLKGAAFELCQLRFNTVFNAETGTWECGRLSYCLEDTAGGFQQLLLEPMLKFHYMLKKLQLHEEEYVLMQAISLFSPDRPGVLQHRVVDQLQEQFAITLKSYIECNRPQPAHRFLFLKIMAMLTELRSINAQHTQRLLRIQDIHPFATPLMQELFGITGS
Sequence of UniProt Q00195 (whole entry, unmodified, looked up): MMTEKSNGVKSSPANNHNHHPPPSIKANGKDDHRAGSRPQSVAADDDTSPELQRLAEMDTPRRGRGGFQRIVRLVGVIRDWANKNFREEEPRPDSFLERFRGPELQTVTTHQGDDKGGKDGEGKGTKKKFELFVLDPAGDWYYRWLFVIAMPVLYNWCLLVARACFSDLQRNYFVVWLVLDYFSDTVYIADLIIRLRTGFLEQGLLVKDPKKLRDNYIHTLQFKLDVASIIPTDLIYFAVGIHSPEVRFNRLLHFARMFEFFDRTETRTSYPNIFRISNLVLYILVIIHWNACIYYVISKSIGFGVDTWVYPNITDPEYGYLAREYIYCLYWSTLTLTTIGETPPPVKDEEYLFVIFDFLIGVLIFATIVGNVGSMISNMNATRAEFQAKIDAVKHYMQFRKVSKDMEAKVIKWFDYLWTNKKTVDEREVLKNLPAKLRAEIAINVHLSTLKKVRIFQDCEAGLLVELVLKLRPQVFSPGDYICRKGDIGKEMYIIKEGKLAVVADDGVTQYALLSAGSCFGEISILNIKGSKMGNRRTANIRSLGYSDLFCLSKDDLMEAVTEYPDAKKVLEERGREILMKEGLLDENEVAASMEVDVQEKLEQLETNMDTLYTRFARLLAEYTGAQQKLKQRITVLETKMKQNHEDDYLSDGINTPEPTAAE

Structure (SMILES)	tested on	test	system	setting	how to read	endpoint	result
COc1ccccc1CNC1=NS(=O)(=O)c2cc(F)ccc2N1	MDA-MB-468	cell growth or viability, MTS	–	72 h	–	IC50	15.7 µM
CN(C)CCCC1(c2ccc(F)cc2)OCc2cc(C#N)ccc21 (stereo not drawn)	H9 hESC-derived AM microtissues	viability	–	3 d	reference: vehicle	IC50	9.53 ± 1.83 µM
CC(=O)N1N=C(c2ccc(NC(=O)CN3CCN(c4ccc(Cl)cc4)CC3)cc2)CC1c1ccc(Cl)cc1Cl (stereo not drawn)	HCT-116, PC-3, MCF7, MDA-MB-231 average	MTT	–	–	–	IC50	70 µM
Cn1cnc2ccc(Nc3c(F)ccc(NS(=O)(=O)N4CC(F)C4)c3Cl)c(Cl)c2c1=O	BRAF wild-type cell lines	cell signalling, refers to: phospho-ERK	–	1 h	–	IC50	≥ 9.8 µM
CO[C@H]1C[C@@H]2CC[C@@H](C)[C@@](O)(O2)C(=O)C(=O)N2CCCC[C@H]2C(=O)O[C@H]([C@H](C)C[C@@H]2CC[C@@H](OCCO)[C@H](OC)C2)CC(=O)[C@H](C)/C=C(\C)[C@@H](O)[C@@H](OC)C(=O)[C@H](C)C[C@H](C)/C=C/C=C/C=C/1C	human astrocytes	C3 secretion, ELISA	–	added: stimulated PBMC supernatant	–	IC50	0.919 µM
Cc1ccc(NC(=O)c2ccc(CN3CCN(C)CC3)cc2)cc1Nc1nccc(-c2cccnc2)n1	MDA-MB-468	cell growth or viability, MTT	–	96 h	–	IC50	2.3 µM
N.N.O=C([O-])C1(C(=O)[O-])CCC1.[Pt+2]	NCI-H1703	cell growth or viability, MTT	–	4 h	–	IC50	630 µM
CCNC(=O)C[C@H]1Oc2ccccc2C(=O)[C@]1(C)[N+](=O)[O-]	DU-145	cell growth or viability, SRB	–	96 h	–	IC50	18.7 µM
COc1cc(/C=C/C(=O)N2CCC=CC2=O)cc(OC)c1OC	pStat3-low breast cancer lines	anchorage-independent growth	–	16 h	–	IC50	15.5 to 100 µM
O=S1(=O)N=C(NCCc2ccccc2)Nc2ccc(F)cc21	MDA-MB-468	cell growth or viability, MTS	–	72 h	–	IC50	> 50 µM
CC[C@]1([N+](=O)[O-])C(=O)c2ccccc2O[C@@H]1CC(=O)NC12CC3CC(CC(C3)C1)C2	DU-145	cell growth or viability, SRB	–	96 h	–	IC50	5.16 µM
CC(C)c1cc(-c2n[nH]c(=O)n2-c2ccc3c(ccn3C)c2)c(O)cc1O	human astrocytes	C3 secretion, ELISA	–	added: stimulated PBMC supernatant	–	IC50	0.0298 µM
COc1ccc(N2CCN(CC(=O)Nc3ccc(C4=NN(C(C)=O)C(c5ccccc5)C4)cc3)CC2)cc1 (stereo not drawn)	HCT-116, PC-3, MCF7, MDA-MB-231 average	MTT	–	–	–	IC50	31 µM
COc1ccc(CNC2=NS(=O)(=O)c3cc(F)ccc3N2)cc1	MDA-MB-468	cell growth or viability, MTS	–	72 h	–	IC50	> 50 µM
CC1(C)C2CC[C@@]1(C)C(=O)/C2=C/c1ccoc1	GES1	cell growth or viability, SRB	–	72 h	–	IC50	265 µM
Nc1nc2c(ncn2[C@@H]2O[C@@H]3COP(=O)(O)O[C@H]3[C@H]2O)c(=O)[nH]1	Cnga2 (Rattus norvegicus, UniProt Q00195, C460W/del61-90/E583M)	agonist, inside-out patch clamp	–	+50 mV	reference: compound over cAMP	relative maximal current	0.16 ± 0.08
CC(=O)N1N=C(c2ccc(NC(=O)CN3CCN(c4ccc(Cl)cc4)CC3)cc2)CC1c1ccc(C)cc1 (stereo not drawn)	HCT-116, PC-3, MCF7, MDA-MB-231 average	MTT	–	–	–	IC50	60 µM
C[C@]1([N+](=O)[O-])C(=O)c2ccccc2O[C@@H]1CC(=O)OCc1ccccc1	DU-145	cell growth or viability, SRB	–	96 h	–	IC50	32.3 µM
CC(C)c1cccc(C(C)C)c1-n1ccn(-c2c(C(C)C)cccc2C(C)C)[c]1=[Au][Cl]	HEK-293T	cell growth or viability	–	72 h	–	IC50	61.5 µM

Structure (SMILES)	tested on	test	system	setting	how to read	endpoint	result
C[C@@H]1C[C@H]2[C@@H]3CCC4=CC(=O)C=C[C@]4(C)[C@@]3(F)[C@@H](O)C[C@]2(C)[C@@]1(O)C(=O)CO	ReNcell VM, differentiated astrocytic	cell viability, live/dead 3D alginate microarray	–	24 h exposure plus 48 h, 6 days differentiation	–	IC50	58.5 µM
CNc1nc(Nc2ccc(-n3cnc(C)n3)c(OC)c2)nc2c1CC[C@H]2c1ccc(F)cc1	H4-APPsw	amyloid beta 1-40 secretion, HTRF, refers to: amyloid beta 1-40	–	overnight	–	IC50	0.0253 µM
CCOC(=O)c1c(N)csc1-c1cn(-c2ccccc2)nc1-c1ccc(C)cc1	Acinetobacter baumannii	broth microdilution	clinical urinary isolate	compound gamma-irradiated 15 kGy	–	MIC	0.124 ± 0.3 µg/mL (≈ 0.307 µM)
COc1cccc2cc(C=C3C(=O)Nc4ccccc43)c(Cl)nc12	A2780	cell growth or viability, MTT	–	72 h	–	IC50	32 µM
C[C@]1(N)C(=O)c2cc(F)ccc2O[C@@H]1CC(=O)NC12CC3CC(CC(C3)C1)C2	DU-145	cell growth or viability, SRB	–	96 h	–	IC50	> 50 µM
COc1cc(-c2nc3ccc(C(=O)Nc4ccc(C)cc4)cc3[nH]2)cc(OC)c1OC	MRC5	cell growth or viability, MTT	–	72 h	–	IC50	15 µM
CNC(=O)c1cc(Oc2ccc(NC(=O)Nc3ccc(Cl)c(C(F)(F)F)c3)cc2)ccn1	MHCC97H	cell growth or viability, MTT	–	48 h	–	IC50	1.04 µM
CC/C(=C(\c1ccc(O)cc1)c1ccc(OCCN(C)C)cc1)c1ccccc1	LNCaP (AR-positive)	cell growth, inhibitor, sulforhodamine B	–	48 h	–	IC50	7 ± 1 µM
COc1cccc2c1C(=O)c1c(O)c3c(c(O)c1C2=O)C[C@@](O)(C(=O)CO)C[C@@H]3O[C@H]1C[C@H](N)[C@H](O)[C@H](C)O1	HCT-116, PC-3, MCF7, MDA-MB-231 average	MTT	–	–	–	IC50	5 µM
O=S1(=O)N=C(NCCCc2ccccc2)Nc2ccc(F)cc21	MDA-MB-468	cell growth or viability, MTS	–	72 h	–	IC50	57.9 µM
COc1ccc(C2CC(c3ccc(NC(=O)CN4CCN(c5ccc(Cl)cc5)CC4)cc3)=NN2C(C)=O)cc1 (stereo not drawn)	HCT-116, PC-3, MCF7, MDA-MB-231 average	MTT	–	–	–	IC50	100 µM
O=C1C(=Cc2ccccc2)CN(C(=O)CCCC(=O)N2CC(=Cc3ccccc3)C(=O)C(=Cc3ccccc3)C2)CC1=Cc1ccccc1	MOLT-4/C8 and CEM cells	cytotoxicity	–	–	–	IC50	1.82 µM
Cc1cc(C)n(C(=S)[S][Au-][P+](CCC[P+]([Au-][S]C(=S)n2nc(C)cc2C)(c2ccccc2)c2ccccc2)(c2ccccc2)c2ccccc2)n1	PHA-P stimulated human PBMC	cell growth, MTT	–	3 d	–	IC50	2.94 ± 0.91 µM
COc1ccc(N2CCN(CC(=O)Nc3ccc(C(=O)C=Cc4cc(OC)c(OC)c(OC)c4)cc3)CC2)cc1	HCT-116, PC-3, MCF7, MDA-MB-231 average	MTT	–	–	–	IC50	32 µM
CC(C)[C@H](NC(=O)[C@@H]1CCCN1C(=O)[C@H](CCCNC(=N)N)NC(=O)[C@H](CS)NC(=O)[C@H](Cc1c[nH]c2ccccc12)NC(=O)[C@H](CCCNC(=N)N)NC(=O)[C@@H](Cc1ccccc1)NC(=O)[C@H](Cc1c[nH]cn1)NC(=O)[C@H](CCC(=O)O)NC(=O)[C@H](CS)NC(=O)[C@H](CS)NC(=O)[C@H](CCCCN)NC(=O)[C@@H]1CC(=O)N[C@@H](CCCNC(=N)N)C(=O)N[C@@H](C)C(=O)N[C@@H](CC(=O)O)C(=O)N[C@H](Cc2ccc(O)cc2)C(=O)N1)C(N)=O [technetium-99m labelled]	–	–	C57 mice, liver	intravenous, 0.037 MBq, 24 h	–	tissue uptake	1.25 ± 0.2 %ID/g
COc1cc(NC(=O)c2cc(-c3c[nH]c4ccccc34)n[nH]2)cc(OC)c1OC	Huh-7, HepG2, Mahlavu, SNU-475	cell growth, SRB	–	range over cell lines	–	IC50	< 5 µM
O=C(/C=C/C=C/c1ccc2c(c1)OCO2)N1CCCCC1	NR1I2 (Homo sapiens, UniProt O75469)	MDR1 promoter reporter, activator, luciferase reporter	HepG2, PXR-transfected	24 h, 1% charcoal-stripped FBS	–	EC50	2.55 µM
C[C@]1([N+](=O)[O-])C(=O)c2ccccc2O[C@@H]1CC(=O)Nc1nccs1	DU-145	cell growth or viability, SRB	–	96 h	–	IC50	49.2 µM
CCCCc1nc2cc(/C=C/C(=O)NO)ccc2n1CCN(CC)CC	primary AML blasts	cell proliferation, CellTiter-Glo	–	48 h, highest FAB-type mean	–	IC50	1.5 µM

Structure (SMILES)	tested on	test	system	setting	how to read	endpoint	result
O=c1[nH]cc(F)c(=O)[nH]1	GES1	cell growth or viability, SRB	–	72 h	–	IC50	140 µM
Nc1ccn([C@@H]2O[C@H](CO)[C@@H](O)C2(F)F)c(=O)n1	AsPC-1 with ENG siRNA	–	–	48 h, added: ENG siRNA 1 for 24 h	–	IC50	0.0181 µM
O=c1[nH]cc(F)c(=O)[nH]1	BEL-7404	cell growth or viability, MTT	–	48 h	–	IC50	40.2 µM
COc1ccc2ccc(=O)oc2c1	PAM212	cell growth	–	4 to 5 days, added: UVA 1.28 J/cm^2	–	IC50	50 µM
O=C(O)c1ccc(-n2nc(-c3ccccc3O)nc2-c2ccccc2O)cc1	MRC5	cell growth, resazurin	–	72 h	–	IC50	≤ 220 µM
O=C1NC(=O)c2cc(Nc3ccc(F)cc3)c(Nc3ccc(F)cc3)cc21	HeLa expressing Ub(G76V)-GFP	Ub(G76V)-GFP degradation, inhibitor, cycloheximide chase	–	–	–	IC50	~10 µM
Cc1cc(=O)oc2c(C)c(O)c([N+](=O)[O-])cc12	PAM212	cell growth	–	4 to 5 days, added: UVA 1.28 J/cm^2	–	IC50	> 100 µM
O=C(O)c1ccc(-n2nc(-c3ccccc3O)nc2-c2ccccc2O)cc1	MRC5	cell growth or viability, resazurin	–	72 h	–	IC50	~180 µM
C=CCc1cc2c(C)cc(=O)oc2c(C)c1O	PAM212	cell growth	–	4 to 5 days, added: UVA 1.28 J/cm^2	–	IC50	10 µM
O=S1(=O)N=C(NCCc2ccc(Cl)cc2)Nc2ccc(F)cc21	MDA-MB-468	cell growth or viability, MTS	–	72 h	–	IC50	46.4 µM
C=CCc1ccc(O)c(-c2ccc(O)c(CC=C)c2)c1	UACC-903	cell proliferation, MTS	–	24 h, added: 10 µM BLM	–	IC50	7.94 µM
COc1ccc2cc(C=C3C(=O)Nc4ccccc43)c(Cl)nc2c1	A2780	cell growth or viability, MTT	–	72 h	–	IC50	> 100 µM
CC(C)(N)c1cc(C(=O)N[C@@H]2CCc3ccc(Oc4ccnc5c4CCC(=O)N5)cc3C2)cc(C(F)(F)F)c1	A-375 NRAS Q61K overexpressing	ERK phosphorylation	–	1 h	–	IC50	0.1 to 0.3 µM
CC(C)=CCOc1ccc2c(C)cc(=O)oc2c1C	PAM212	cell growth	–	4 to 5 days, added: UVA 1.28 J/cm^2	–	IC50	10 µM
CNC(=O)C[C@H]1Oc2ccccc2C(=O)[C@]1(C)[N+](=O)[O-]	DU-145	cell growth or viability, SRB	–	96 h	–	IC50	24.7 µM
CC1(C)C2CCC(CN=C(N)CSS(=O)(=O)O)C1C2 (stereo not drawn)	HEK-293T	qRT-PCR, refers to: DUSP11 mRNA	–	5 h	–	IC50	~75 µM
COc1cc(/C=C/C(O)=C/C(=O)/C=C/c2ccc(OC(C)=O)c(OC)c2)ccc1O	mouse Peritoneal macrophage	IL-6 release, inhibitor, ELISA	–	LPS-stimulated	–	IC50	2.21 µM
Cc1cc(N2CCc3c(c(C)nn3CC34CCC(NC(=O)[C@@H]5COCCN5)(CC3)CC4)C2)c2cnn(C)c2n1	human PBMC	IFN-alpha release	human	added: SLE patient serum immune complexes	–	IC50	0.001 ± 0.0003 µM
Nc1nc2[nH]c(CCCc3ccc(C(=O)N[C@@H](CCCC(=O)O)C(=O)O)s3)cc2c(=O)[nH]1	KB cells	cell growth	–	added: folic acid 200 nM	–	IC50	> 1 µM
